{"data": "Assay results from different studies", "note": "Each numbered part is a random draw from the data of one study; scales do not carry over between parts. Values joined by “and” are separate records of one study, mostly repeats; a detail may differ.", "sequence of UniProt Q00535 (whole entry, looked up)": "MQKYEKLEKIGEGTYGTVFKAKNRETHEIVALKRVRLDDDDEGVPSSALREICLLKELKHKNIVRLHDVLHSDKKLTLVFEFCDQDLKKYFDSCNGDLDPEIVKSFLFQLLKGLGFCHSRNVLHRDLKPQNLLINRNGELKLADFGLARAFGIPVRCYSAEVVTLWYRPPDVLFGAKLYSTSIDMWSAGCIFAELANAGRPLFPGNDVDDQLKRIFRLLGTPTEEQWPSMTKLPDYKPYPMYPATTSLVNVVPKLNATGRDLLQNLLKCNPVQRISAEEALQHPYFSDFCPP", "sequence of UniProt P00519 (whole entry, looked up)": "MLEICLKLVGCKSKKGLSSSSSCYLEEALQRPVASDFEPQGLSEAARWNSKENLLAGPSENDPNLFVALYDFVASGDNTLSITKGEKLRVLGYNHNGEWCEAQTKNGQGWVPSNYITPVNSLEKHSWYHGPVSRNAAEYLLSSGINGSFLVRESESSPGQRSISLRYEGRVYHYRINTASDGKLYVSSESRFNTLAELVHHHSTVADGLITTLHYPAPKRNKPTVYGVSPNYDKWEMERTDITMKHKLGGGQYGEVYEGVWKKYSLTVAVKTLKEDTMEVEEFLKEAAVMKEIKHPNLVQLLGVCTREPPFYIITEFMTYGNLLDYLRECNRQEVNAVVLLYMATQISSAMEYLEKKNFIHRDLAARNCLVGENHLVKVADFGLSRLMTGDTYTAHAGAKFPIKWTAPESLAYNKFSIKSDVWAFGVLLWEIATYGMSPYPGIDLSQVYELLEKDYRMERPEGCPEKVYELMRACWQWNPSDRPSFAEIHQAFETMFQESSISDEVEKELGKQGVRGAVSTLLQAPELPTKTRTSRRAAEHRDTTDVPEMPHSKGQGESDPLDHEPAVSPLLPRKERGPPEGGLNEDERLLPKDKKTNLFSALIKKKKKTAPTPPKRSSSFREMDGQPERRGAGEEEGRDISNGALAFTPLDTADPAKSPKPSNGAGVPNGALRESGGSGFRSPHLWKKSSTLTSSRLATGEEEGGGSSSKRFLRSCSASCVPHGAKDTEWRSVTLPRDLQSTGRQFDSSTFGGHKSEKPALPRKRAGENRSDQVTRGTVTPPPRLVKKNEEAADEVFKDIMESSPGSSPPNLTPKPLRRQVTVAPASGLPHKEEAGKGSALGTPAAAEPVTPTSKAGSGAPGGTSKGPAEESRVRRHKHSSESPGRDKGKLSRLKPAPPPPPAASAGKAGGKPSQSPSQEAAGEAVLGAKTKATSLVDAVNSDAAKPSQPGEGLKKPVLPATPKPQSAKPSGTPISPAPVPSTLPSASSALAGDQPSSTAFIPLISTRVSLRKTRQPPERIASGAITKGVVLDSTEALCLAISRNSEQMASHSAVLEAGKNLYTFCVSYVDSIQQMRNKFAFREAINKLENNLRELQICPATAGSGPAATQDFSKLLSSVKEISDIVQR", "sequence of UniProt O15264 (whole entry, looked up)": "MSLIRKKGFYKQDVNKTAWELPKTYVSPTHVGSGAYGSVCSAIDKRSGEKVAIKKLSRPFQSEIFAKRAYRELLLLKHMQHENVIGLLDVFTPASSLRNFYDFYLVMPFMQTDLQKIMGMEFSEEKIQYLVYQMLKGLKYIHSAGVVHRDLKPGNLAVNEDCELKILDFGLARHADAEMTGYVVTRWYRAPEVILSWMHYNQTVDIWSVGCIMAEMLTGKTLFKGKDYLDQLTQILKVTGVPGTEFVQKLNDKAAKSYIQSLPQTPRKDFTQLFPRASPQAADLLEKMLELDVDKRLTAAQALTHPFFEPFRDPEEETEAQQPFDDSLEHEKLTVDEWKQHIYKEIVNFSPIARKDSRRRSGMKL", "sequence of UniProt Q9H2X6 (whole entry, looked up)": "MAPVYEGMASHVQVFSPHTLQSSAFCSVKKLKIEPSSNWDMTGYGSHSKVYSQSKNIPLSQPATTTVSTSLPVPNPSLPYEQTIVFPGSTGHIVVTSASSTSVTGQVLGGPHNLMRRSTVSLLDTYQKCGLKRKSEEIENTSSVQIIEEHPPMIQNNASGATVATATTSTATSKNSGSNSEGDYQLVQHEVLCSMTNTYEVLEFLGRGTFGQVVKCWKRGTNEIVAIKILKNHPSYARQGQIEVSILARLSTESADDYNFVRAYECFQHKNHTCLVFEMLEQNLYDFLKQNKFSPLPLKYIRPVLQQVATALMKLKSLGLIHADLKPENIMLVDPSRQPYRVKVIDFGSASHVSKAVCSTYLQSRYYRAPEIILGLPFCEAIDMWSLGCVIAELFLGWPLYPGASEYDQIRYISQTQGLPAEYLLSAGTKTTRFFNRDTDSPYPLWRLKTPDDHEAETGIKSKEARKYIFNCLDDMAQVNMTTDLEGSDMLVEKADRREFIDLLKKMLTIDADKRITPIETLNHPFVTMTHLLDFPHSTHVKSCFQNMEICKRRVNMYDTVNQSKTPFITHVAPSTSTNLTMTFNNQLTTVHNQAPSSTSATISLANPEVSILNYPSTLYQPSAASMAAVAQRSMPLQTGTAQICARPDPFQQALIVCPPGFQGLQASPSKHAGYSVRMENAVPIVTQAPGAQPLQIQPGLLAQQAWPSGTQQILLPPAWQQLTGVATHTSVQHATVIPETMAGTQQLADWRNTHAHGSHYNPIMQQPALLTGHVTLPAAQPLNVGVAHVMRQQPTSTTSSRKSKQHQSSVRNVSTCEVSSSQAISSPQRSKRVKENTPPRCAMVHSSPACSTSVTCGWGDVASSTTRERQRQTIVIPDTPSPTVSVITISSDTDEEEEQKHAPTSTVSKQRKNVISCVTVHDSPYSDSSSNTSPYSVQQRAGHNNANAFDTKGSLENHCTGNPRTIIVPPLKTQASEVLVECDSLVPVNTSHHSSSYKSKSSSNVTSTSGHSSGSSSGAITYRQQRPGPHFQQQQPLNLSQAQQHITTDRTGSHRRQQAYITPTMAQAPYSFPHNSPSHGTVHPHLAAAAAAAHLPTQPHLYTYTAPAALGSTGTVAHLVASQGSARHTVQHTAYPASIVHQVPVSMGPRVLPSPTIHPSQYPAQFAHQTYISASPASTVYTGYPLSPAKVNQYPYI", "sequence of UniProt Q13164 (whole entry, looked up)": "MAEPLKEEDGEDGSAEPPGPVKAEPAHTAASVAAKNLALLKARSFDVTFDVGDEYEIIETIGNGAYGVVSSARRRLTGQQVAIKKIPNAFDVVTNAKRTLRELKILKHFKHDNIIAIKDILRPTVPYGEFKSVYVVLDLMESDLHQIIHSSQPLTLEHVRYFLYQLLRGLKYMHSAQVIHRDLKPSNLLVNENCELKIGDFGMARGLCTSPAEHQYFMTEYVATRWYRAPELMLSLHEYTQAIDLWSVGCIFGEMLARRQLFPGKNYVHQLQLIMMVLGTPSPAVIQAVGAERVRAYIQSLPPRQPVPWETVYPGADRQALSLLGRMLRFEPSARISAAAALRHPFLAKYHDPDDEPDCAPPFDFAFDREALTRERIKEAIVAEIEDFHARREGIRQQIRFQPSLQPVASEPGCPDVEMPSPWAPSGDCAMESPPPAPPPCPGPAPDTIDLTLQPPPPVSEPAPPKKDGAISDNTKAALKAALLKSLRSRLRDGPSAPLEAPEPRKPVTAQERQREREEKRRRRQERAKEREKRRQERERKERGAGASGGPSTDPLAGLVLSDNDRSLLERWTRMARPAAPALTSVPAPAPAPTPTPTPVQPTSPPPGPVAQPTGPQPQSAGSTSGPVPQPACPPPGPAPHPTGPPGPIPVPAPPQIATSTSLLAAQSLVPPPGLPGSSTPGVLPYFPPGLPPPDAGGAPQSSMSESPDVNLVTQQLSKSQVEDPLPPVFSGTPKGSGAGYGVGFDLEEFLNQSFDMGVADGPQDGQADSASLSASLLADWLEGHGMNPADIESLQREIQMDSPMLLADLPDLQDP", "sequence of UniProt O75460 (whole entry, looked up)": "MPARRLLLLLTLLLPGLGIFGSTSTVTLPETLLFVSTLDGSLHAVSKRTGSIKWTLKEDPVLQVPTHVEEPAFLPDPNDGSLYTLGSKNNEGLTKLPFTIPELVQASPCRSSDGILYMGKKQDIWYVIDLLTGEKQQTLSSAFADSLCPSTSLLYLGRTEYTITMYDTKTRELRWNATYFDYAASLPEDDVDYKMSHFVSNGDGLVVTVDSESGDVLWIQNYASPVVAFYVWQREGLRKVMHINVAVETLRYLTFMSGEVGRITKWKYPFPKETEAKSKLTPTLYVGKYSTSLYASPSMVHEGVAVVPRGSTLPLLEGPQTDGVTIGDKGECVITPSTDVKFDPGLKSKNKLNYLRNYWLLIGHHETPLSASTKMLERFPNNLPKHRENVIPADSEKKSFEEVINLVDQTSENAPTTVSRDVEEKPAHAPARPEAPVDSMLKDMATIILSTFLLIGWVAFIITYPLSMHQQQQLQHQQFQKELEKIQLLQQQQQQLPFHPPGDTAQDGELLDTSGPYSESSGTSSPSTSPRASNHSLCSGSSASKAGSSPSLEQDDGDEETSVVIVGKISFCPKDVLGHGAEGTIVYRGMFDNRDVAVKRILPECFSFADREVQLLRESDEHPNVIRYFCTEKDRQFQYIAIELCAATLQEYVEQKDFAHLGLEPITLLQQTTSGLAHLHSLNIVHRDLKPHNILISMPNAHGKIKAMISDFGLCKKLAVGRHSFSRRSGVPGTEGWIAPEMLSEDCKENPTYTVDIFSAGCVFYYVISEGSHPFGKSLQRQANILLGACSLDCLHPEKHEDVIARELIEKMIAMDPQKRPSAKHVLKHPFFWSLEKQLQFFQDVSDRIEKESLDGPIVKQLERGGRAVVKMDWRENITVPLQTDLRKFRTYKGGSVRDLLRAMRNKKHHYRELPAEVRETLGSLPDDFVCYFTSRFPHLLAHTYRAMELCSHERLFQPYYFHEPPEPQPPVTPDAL"}
{"data": "Sample 1", "host": "human", "matrix": "microsomes or S9", "tested at": "2 µM", "time": "0.5 h"}
{"SMILES": "CCc1c[nH]c2ncnc(NCC(Cc3ccccc3)c3ccccn3)c12 (stereo not drawn)", "remaining compound [%]": 0.114}
{"SMILES": "CCC1CCCCN1C(=O)c1sc2nc(C)nc(N(CC)CC)c2c1C (stereo not drawn)", "remaining compound [%]": 0.207}
{"SMILES": "COC(=O)C1(NC(=O)c2ccc(CN3CC(C)OC(C)C3)cc2)CCS(=O)(=O)CC1 (stereo not drawn)", "remaining compound [%]": "> 100"}
{"SMILES": "Cn1nccc1-c1ccnc2nc(Cc3ccc4c(c3)CCC(C)(C)O4)nn12", "remaining compound [%]": 27.3}
{"SMILES": "CN(C)S(=O)(=O)c1cc(C(=O)NCC(c2ccccc2)N2CCOCC2)c(Cl)cc1Cl (stereo not drawn)", "remaining compound [%]": 1.22}
{"SMILES": "CCC(C(=O)Nc1c(C)cc(C)cc1C)n1nc(C)c2c(C)onc2c1=O (stereo not drawn)", "remaining compound [%]": 34.9}
{"data": "Sample 2", "cell line": "mouse MPNST tumor cells", "technique": "high-content nuclear imaging", "measured": "cell number", "tested at": "10 µM", "time": "12 h", "notes": "mean of 2 replicates", "relative to": "plate mean", "direction": "higher = more cells"}
{"SMILES": "CCN1C(=O)NC(c2ccccc2)C1=O (stereo not drawn)", "nuclei count [z-score]": 0.173}
{"SMILES": "C[C@H](Nc1cc2c(-c3ccc4c(c3)OCO4)noc2cn1)c1ccccc1", "nuclei count [z-score]": 0.473}
{"SMILES": "CN1[C@@H]2CC[C@H]1C[C@@H](OC(c1ccccc1)c1ccccc1)C2", "nuclei count [z-score]": -0.237}
{"SMILES": "CC1(C)CCC(C)(C)c2cc3cc(-c4cc(C(=O)O)cs4)ccc3cc21", "nuclei count [z-score]": -2.48}
{"SMILES": "Cc1nn(-c2ccccc2)c(C)c1C=NN1CCN(Cc2ccccc2)CC1", "nuclei count [z-score]": 0.777}
{"data": "Sample 3", "Structure (SMILES)": "C[C@@H](c1cccc(C#N)c1)n1cc(Cl)cc(C(N)=O)c1=N", "technique": "competition with immobilised ligand", "tested at": "1 µM"}
{"target": "Muscle, skeletal receptor tyrosine-protein kinase (MUSK, Homo sapiens, UniProt O15146)", "effect on": "cell-free assay", "remaining binding": "100%"}
{"target": "Inhibitor of nuclear factor kappa-B kinase subunit beta (IKBKB, Homo sapiens, UniProt O14920)", "effect on": "cell-free assay", "remaining binding": "100%"}
{"target": "Tyrosine-protein kinase Tec (TEC, Homo sapiens, UniProt P42680)", "effect on": "binding", "remaining binding": "88%"}
{"target": "Aurora kinase B (AURKB, Homo sapiens, UniProt Q96GD4)", "effect on": "cell-free assay", "remaining binding": "100%"}
{"target": "Mitogen-activated protein kinase 7 (MAPK7, Homo sapiens, UniProt Q13164)", "effect on": "cell-free assay", "remaining binding": "88%"}
{"target": "Protein kinase C theta type (PRKCQ, Homo sapiens, UniProt Q04759)", "effect on": "cell-free assay", "remaining binding": "86%"}
{"target": "Mitogen-activated protein kinase 13 (MAPK13, Homo sapiens, UniProt O15264)", "effect on": "cell-free assay", "remaining binding": "98%"}
{"target": "Macrophage colony-stimulating factor 1 receptor, autoinhibited (CSF1R, Homo sapiens, UniProt P07333)", "effect on": "cell-free assay", "remaining binding": "96%"}
{"target": "Receptor-interacting serine/threonine-protein kinase 4 (RIPK4, Homo sapiens, UniProt P57078)", "effect on": "cell-free assay", "remaining binding": "57%"}
{"target": "Serine/threonine-protein kinase/endoribonuclease IRE1 (ERN1, Homo sapiens, UniProt O75460)", "effect on": "cell-free assay", "remaining binding": "76%"}
{"target": "Serine/threonine-protein kinase DCLK2 (DCLK2, Homo sapiens, UniProt Q8N568)", "effect on": "cell-free assay", "remaining binding": "90%"}
{"target": "Serine/threonine-protein kinase 38 (STK38, Homo sapiens, UniProt Q15208)", "effect on": "cell-free assay", "remaining binding": "84%"}
{"target": "Homeodomain-interacting protein kinase 2 (HIPK2, Homo sapiens, UniProt Q9H2X6)", "effect on": "cell-free assay", "remaining binding": "100%"}
{"target": "Cyclin-dependent kinase 5 (CDK5, Homo sapiens, UniProt Q00535)", "effect on": "cell-free assay", "remaining binding": "92%"}
{"target": "Serine/threonine-protein kinase Nek3 (NEK3, Homo sapiens, UniProt P51956)", "effect on": "cell-free assay", "remaining binding": "44%"}
{"target": "Tyrosine-protein kinase ABL1, non-phosphorylated (ABL1, Homo sapiens, UniProt P00519)", "effect on": "cell-free assay", "remaining binding": "82%"}
{"data": "Sample 4", "Compound": "COc1cc(C(=O)OCCCN2CCCN(CCCOC(=O)c3cc(OC)c(OC)c(OC)c3)CC2)cc(OC)c1OC", "technique": "electrocardiography"}
{"host": "mouse", "route": "intraperitoneal", "dose": "10 mg/kg", "time": "10 min", "heart rate": "562 beats/min and 578 beats/min and 570 beats/min"}
{"host": "mice", "route": "intraperitoneal", "dose": "30 mg/kg", "time": "60 min", "heart rate": "555 beats/min and 550 beats/min"}
{"host": "mice", "route": "intravenous", "dose": "30 mg/kg", "time": "10 min", "heart rate": "420 beats/min and 245 beats/min and 423 beats/min and 315 beats/min and 361 beats/min and 452 beats/min"}
{"host": "mice", "route": "intraperitoneal", "dose": "10 mg/kg", "time": "60 min", "heart rate": "550 beats/min and 590 beats/min and 577 beats/min"}
{"host": "mouse", "route": "intraperitoneal", "dose": "30 mg/kg", "time": "30 min", "heart rate": "554 beats/min and 548 beats/min and 558 beats/min"}
{"data": "Sample 5", "SMILES": "CC(=O)N[C@@H](Cc1c[nH]c2ccccc12)C(=O)N[C@@H](CCC(=O)C=[N+]=[N-])C(=O)OC(C)C", "matrix": "EL4 tumour", "dose": "dose not given", "relative to": "vehicle"}
{"measured": "N6-acetyllysine", "host": "mouse, EL4 tumour-bearing", "log2 fold change": 0.13}
{"measured": "1-methylnicotinamide", "host": "mouse, EL4 tumour-bearing", "log2 fold change": 0.669}
{"measured": "1-methylhistamine", "host": "mouse, EL4 tumour-bearing", "log2 fold change": 1.36}
{"measured": "N6,N6-dimethyllysine", "host": "Mus musculus", "log2 fold change": -0.306}
{"note": "A few entries again (sample 3):"}
{"target": "Serine/threonine-protein kinase DCLK2 (DCLK2, Homo sapiens, UniProt Q8N568)", "effect on": "cell-free assay", "remaining binding": "90%"}
{"target": "Serine/threonine-protein kinase 38 (STK38, Homo sapiens, UniProt Q15208)", "effect on": "cell-free assay", "remaining binding": "84%"}
{"target": "Homeodomain-interacting protein kinase 2 (HIPK2, Homo sapiens, UniProt Q9H2X6)", "effect on": "cell-free assay", "remaining binding": "100%"}
{"target": "Cyclin-dependent kinase 5 (CDK5, Homo sapiens, UniProt Q00535)", "effect on": "cell-free assay", "remaining binding": "92%"}
{"target": "Serine/threonine-protein kinase Nek3 (NEK3, Homo sapiens, UniProt P51956)", "effect on": "cell-free assay", "remaining binding": "44%"}
